Measurements from different studies.
Parts stem from different laboratories: compare values within a part only.

Series 1 — method: protein binding microarray; molecule type: double-stranded DNA, one strand shown; medium: in vitro; tested at: not given; baseline: not given; direction: higher = stronger binding
Target: Histone acetyltransferase KAT6A, winged helix 2, GST fusion (KAT6A, Homo sapiens, UniProt Q92794, residues 85-181)
Setting: 8-mer, flanks averaged, mean of 2 arrays, mostly near background
Construct (chain): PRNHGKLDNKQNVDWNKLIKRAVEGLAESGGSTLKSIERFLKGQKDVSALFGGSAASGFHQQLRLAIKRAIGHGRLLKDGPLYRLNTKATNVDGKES
Oligonucleotide | E-score
AAATCGCG | -0.00446
ATGACGGC | -0.0989
GGTCTCGA | 0.0645
CTATCGGA | 0.0249
GCGGCCAA | 0.146

Series 2 — method: competition protein-binding microarray; molecule type: double-stranded DNA, one strand shown; medium: in vitro; tested at: 2 µM; with: Pho4 competitor, 0.05 µM; direction: higher = stronger binding; all sequences stand within: … GTCTTGATTCGCTTGACGCTGCTG
Target: Centromere-binding protein 1, full length, His-tagged (CBF1, Saccharomyces cerevisiae, UniProt P17106, residues 1-351)
Sequence of UniProt P17106 (whole entry, looked up): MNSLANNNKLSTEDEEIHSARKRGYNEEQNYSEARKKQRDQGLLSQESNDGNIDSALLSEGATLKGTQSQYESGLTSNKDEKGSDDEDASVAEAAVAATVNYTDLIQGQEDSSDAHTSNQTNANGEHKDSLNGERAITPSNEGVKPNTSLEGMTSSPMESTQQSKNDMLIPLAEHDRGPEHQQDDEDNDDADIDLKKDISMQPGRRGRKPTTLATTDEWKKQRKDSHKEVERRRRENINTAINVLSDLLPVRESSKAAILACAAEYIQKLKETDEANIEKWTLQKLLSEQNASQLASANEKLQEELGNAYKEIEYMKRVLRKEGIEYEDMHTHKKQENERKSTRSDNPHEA
Setting: whole 60-bp probe, lowest competitor level
Oligonucleotide | fluorescence intensity
CTTTCCCGATCTTGTTGCGTGGGTGTAGCACATTTG | 73.5 a.u.
AGCTAAGCGTCTACCCACGTAACAAACAATCTTGCC | 78.5 a.u.
CAAGATCTTTGGCAAAACGTGGACCCCAACTTCGAA | 107 a.u.
CCTGCCAAGGGTAACCACGTGCTGGGAGATTTGCAG | 1810 a.u.
TATAAAACAACTTTGAACGTGGCAAATCAGATTGCC | 126 a.u.
TGCGCAACAACTTGCTGTGTGGGTGTATGTCTAGAA | 59 a.u.

Series 3 — method: RNA Bind-n-Seq; molecule type: RNA; medium: in vitro; tested at: 20 nM; setting: 6-mer, flanks averaged, single round; with: 150 mM LiCl; baseline: input library; direction: higher = stronger binding
Target: TAR DNA-binding protein 43, full length, His tag (TARDBP, Homo sapiens, UniProt Q13148, residues 1-414)
Oligonucleotide | 6-mer enrichment (R)
UGGGGU | 1.38
GACCUG | 0.907
UGUUAC | 1.01
GCUCAA | 0.838
GCUGCC | 0.991
UCGGCU | 0.962

Further values, each from its own experiment
Substance | target | assay | system | conditions | how to read | endpoint | result
PhoQ, residues 284 288 289 292 302 303 TLASMF | PhoP, residues 12 14 15 18 19 NQFFI (Escherichia coli, UniProt P23836) | Sort-seq, item: YFP reporter | E. coli | PhoQ-PhoP variant library, with: 10 µM Mg2+ | baseline: high Mg2+ state, higher = stronger signaling | fold induction | 8.99

Excerpt of the above (series 3):
Oligonucleotide | 6-mer enrichment (R)
UGUUAC | 1.01
GCUCAA | 0.838
GCUGCC | 0.991
